Experimental data of several laboratories.
Parts stem from different laboratories: compare values within a part only. “And” joins repeats or separate records; there may be more than shown.
UniProt Q9H422, sequence (whole entry, looked up): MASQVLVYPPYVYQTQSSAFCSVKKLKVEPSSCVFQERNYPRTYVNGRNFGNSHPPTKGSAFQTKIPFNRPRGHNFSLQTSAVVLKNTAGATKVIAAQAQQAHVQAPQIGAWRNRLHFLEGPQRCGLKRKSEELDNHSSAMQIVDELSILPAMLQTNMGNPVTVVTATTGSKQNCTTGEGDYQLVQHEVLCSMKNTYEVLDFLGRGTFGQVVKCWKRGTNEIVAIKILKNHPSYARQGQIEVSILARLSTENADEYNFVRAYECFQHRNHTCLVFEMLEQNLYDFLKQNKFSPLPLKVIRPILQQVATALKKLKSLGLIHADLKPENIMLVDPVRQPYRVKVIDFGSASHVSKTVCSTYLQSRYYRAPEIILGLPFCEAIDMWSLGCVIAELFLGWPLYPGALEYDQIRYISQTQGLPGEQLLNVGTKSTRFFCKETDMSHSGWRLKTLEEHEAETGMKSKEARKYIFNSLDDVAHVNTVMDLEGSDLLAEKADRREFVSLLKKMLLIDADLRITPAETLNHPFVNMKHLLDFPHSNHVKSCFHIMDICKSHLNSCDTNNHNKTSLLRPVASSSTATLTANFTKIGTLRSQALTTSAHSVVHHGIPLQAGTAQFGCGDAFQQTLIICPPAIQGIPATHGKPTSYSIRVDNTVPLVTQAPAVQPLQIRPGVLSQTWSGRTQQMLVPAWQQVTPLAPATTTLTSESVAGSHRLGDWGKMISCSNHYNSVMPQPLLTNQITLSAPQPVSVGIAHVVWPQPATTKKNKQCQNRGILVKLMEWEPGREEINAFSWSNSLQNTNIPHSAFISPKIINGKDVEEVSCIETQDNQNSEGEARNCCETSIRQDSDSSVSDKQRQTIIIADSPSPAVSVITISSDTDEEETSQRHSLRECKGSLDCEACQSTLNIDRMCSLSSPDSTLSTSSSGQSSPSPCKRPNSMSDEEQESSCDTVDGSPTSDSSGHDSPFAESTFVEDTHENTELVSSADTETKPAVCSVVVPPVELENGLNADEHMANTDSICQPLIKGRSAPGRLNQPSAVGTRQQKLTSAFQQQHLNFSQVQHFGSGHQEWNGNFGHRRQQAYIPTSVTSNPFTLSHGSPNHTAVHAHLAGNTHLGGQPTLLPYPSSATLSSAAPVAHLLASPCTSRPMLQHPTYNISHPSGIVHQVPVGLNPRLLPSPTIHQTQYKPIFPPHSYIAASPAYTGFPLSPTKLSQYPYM
UniProt Q9HC98, sequence (whole entry, looked up): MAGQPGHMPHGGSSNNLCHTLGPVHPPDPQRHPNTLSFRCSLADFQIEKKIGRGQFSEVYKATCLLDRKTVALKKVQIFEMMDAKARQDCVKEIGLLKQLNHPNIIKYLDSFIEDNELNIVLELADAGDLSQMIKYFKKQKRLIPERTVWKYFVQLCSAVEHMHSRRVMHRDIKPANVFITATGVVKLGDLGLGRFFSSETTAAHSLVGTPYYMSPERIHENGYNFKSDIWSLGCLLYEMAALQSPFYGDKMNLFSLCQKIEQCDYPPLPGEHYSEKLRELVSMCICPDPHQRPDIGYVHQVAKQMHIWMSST
UniProt Q8NEB9, sequence (whole entry, looked up): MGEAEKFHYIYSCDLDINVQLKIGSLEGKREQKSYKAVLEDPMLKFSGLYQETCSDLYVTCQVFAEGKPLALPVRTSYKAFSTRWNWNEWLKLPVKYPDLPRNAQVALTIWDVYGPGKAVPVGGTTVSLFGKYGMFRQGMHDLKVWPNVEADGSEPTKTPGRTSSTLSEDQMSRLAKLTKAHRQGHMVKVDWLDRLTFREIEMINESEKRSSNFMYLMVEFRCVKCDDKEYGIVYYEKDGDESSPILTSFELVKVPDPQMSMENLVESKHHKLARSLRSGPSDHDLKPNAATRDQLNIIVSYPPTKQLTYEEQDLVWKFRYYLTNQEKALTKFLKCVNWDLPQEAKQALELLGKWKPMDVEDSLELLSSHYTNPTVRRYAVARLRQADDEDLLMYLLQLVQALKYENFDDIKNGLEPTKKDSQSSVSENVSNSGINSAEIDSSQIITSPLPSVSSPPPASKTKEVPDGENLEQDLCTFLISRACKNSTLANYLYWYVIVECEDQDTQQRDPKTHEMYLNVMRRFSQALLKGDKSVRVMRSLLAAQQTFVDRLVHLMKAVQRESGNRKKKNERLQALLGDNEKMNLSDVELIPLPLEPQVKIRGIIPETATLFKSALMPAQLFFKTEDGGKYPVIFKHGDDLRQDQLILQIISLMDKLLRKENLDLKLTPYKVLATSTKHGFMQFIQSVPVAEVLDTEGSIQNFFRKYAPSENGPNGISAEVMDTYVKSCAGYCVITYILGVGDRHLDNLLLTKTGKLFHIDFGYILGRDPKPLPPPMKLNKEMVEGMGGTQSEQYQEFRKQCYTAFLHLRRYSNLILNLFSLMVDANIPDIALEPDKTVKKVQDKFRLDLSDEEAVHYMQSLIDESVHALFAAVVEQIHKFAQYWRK
UniProt Q9UPZ9, sequence (whole entry, looked up): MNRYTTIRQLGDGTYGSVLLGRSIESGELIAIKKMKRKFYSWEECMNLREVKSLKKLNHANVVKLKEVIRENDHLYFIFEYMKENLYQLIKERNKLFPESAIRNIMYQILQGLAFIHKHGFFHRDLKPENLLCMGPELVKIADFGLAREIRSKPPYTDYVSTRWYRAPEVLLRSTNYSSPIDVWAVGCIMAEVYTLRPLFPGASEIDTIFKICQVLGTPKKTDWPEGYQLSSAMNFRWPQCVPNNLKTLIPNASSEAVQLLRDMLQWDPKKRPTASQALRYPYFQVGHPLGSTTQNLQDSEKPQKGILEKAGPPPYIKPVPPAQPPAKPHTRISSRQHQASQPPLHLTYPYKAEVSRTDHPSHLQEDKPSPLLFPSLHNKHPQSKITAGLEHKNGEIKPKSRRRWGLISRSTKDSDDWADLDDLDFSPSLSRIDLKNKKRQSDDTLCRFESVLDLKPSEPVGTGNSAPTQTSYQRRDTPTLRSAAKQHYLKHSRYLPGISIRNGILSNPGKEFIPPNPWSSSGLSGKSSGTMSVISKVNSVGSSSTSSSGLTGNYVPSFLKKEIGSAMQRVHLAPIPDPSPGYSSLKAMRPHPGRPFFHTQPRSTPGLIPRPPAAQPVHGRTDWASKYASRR
UniProt Q96GD4, sequence (whole entry, looked up): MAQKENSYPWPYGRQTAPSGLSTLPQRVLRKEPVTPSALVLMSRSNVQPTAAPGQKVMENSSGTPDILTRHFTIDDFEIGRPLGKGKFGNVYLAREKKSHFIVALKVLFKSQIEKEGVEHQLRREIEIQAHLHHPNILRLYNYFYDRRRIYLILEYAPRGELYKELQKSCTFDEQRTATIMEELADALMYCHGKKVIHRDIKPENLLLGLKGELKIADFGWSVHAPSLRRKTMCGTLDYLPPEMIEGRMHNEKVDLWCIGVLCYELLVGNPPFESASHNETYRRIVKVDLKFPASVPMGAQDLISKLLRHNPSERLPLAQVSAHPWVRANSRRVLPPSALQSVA
UniProt Q8N568, sequence (whole entry, looked up): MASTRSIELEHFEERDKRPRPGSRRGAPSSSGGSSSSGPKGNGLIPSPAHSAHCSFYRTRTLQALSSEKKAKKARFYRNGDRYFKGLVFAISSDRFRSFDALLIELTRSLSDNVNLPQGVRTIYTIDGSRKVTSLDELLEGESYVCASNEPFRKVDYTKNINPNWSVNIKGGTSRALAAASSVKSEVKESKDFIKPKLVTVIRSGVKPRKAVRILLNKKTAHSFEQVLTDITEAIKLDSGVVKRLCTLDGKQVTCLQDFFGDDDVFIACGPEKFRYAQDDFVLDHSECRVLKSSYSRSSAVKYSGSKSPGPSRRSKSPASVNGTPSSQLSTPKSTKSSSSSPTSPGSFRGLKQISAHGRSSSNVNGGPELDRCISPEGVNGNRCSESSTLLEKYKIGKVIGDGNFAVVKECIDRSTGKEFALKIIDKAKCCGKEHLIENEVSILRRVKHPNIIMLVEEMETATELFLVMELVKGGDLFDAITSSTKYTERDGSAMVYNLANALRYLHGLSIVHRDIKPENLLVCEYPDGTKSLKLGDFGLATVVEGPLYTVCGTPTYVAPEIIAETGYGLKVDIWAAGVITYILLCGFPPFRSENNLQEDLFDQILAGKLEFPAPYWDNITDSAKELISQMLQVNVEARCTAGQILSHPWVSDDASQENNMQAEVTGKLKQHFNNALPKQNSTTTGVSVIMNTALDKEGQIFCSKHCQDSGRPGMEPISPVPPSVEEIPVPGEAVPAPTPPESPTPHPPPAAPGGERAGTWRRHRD
UniProt P52564, sequence (whole entry, looked up): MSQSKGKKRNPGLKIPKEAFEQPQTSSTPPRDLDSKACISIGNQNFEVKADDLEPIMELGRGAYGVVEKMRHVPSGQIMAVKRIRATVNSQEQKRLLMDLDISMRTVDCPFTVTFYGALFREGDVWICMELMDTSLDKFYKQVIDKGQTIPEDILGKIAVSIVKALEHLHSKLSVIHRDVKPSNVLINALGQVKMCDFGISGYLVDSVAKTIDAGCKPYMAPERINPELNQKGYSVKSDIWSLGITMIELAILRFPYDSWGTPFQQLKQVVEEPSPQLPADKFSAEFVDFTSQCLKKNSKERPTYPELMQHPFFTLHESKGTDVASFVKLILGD
UniProt Q8WU08, sequence (whole entry, looked up): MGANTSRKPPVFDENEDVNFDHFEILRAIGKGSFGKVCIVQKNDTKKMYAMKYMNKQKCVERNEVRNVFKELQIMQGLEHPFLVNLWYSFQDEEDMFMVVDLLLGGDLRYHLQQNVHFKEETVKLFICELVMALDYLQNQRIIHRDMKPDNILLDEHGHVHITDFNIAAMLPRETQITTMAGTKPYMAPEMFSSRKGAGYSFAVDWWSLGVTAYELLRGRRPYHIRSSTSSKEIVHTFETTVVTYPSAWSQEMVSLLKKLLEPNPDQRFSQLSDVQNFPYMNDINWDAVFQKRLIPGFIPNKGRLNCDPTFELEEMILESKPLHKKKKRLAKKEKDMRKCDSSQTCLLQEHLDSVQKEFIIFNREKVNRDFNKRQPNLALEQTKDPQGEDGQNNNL

Sample 1 — cell line: mouse MPNST tumor cells; method: high-content immunofluorescence imaging; item: nuclear SOX9; tested at: 10 µM; time: 12 h; setting: mean of 2 replicates; reference: DMSO control; reading: higher = more nuclear SOX9
For `CCOC(=O)N1CCC(CN(Cc2ccc(Cl)cc2)Cc2ccc([N+](=O)[O-])s2)C1` (stereo not drawn), “nuclear SOX9 intensity” read 135 % of DMSO.
For `C=C1c2c(Cl)ccc(O)c2C(O)=C2C(=O)[C@]3(O)C(O)=C(C(N)=O)C(=O)[C@@H](N(C)C)[C@@H]3[C@@H](O)[C@H]12.O=C(O)c1cc(S(=O)(=O)O)ccc1O`, “nuclear SOX9 intensity” read 106 % of DMSO.
`COc1cc(Nc2ccnc3ccc(Br)cc23)cc(OC)c1OC`: “nuclear SOX9 intensity” 288 % of DMSO.
`CC(=O)Oc1ccccc1C(=O)Nc1ncc([N+](=O)[O-])s1`: “nuclear SOX9 intensity” 111 % of DMSO and 97.5 % of DMSO.

Sample 2 — species: mouse; medium: microsomes or S9; tested at: 2 µM; time: 0.5 h
`COc1ccc(-c2nc(Cc3ccccc3)sc2C)cc1` gave a remaining compound of 0.447%.
`c1ccc(-c2ccc3c(C4CCCC4)cncc3c2)cc1` has a remaining compound of 0.593%.
`CC1C(OC(=O)C2=CN3CCS(=O)(=O)N=C3C=C2)CC2CC1C2(C)C` (stereo not drawn) has a remaining compound of 3.18%.
The remaining compound of `O=C1CC(c2ccccc2Cl)CC2=C1C(c1ccc3c(c1)OCO3)Nc1ccccc1N2` (stereo not drawn) is reported as 2.71%.

Sample 3 — method: protein-binding microarray; molecule type: double-stranded DNA, one strand shown; medium: in vitro; tested at: not given; reading: higher = stronger binding
Target: Transcriptional repressor CTCF (CTCF, Homo sapiens, UniProt P49711, residues 1-727, full length assumed)
Setting: k-mer, scored over probes, only values ≥0.25
Residues (chain): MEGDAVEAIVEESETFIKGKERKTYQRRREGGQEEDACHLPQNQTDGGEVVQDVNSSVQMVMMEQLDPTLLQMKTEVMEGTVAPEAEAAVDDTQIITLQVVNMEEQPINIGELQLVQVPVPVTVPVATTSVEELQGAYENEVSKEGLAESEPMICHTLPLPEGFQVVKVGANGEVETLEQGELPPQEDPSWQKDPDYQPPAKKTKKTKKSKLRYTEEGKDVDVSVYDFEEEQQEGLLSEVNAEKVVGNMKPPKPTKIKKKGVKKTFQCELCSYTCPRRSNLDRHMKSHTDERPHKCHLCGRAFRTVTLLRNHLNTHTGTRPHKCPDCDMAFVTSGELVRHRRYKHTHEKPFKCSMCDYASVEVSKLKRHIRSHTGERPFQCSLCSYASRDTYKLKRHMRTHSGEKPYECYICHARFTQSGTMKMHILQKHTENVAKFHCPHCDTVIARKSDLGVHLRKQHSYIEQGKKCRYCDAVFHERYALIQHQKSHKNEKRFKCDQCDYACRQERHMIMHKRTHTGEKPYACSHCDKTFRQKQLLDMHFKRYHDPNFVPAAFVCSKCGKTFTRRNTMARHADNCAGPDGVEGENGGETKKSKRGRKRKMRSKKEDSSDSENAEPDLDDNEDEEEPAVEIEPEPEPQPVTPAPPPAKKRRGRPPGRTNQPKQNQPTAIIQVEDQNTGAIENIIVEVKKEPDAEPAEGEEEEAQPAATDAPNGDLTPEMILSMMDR
`CTGCGCAA` has an E-score of 0.315.
With `ATAACGAA` the E-score was 0.29.
For `CAGTAATG`, the E-score was 0.256.
`ATATTTCC` has an E-score of 0.258.
For `CATGTTTC`, the E-score was 0.313.
`ATTTATTC` has an E-score of 0.254.
`AATTTCCA` gave an E-score of 0.318.
With `ATACCATC` the E-score was 0.273.

Sample 4 — SMILES: FC(F)(F)c1ccc2c(c1)nc(-c1cccnc1)n2C1CC1; tested at: 1 µM
Ephrin type-A receptor 1 (EPHA1, Homo sapiens, UniProt P21709); cell-free assay, competition with immobilised ligand — remaining binding: 100%.
It gave 100% for remaining binding (Phosphatidylinositol 3-kinase catalytic subunit type 3 (PIK3C3, Homo sapiens, UniProt Q8NEB9); cell-free assay, competition with immobilised ligand).
For Tyrosine-protein kinase ABL1, phosphorylated (ABL1, Homo sapiens, UniProt P00519); cell-free assay, competition with immobilised ligand: remaining binding read 91%.
The remaining binding was 100% (Dual serine/threonine and tyrosine protein kinase (DSTYK, Homo sapiens, UniProt Q6XUX3); cell-free assay, competition with immobilised ligand).
The remaining binding was 89% (Serine/threonine-protein kinase 32A (STK32A, Homo sapiens, UniProt Q8WU08); cell-free assay, competition with immobilised ligand).
Serine/threonine-protein kinase N2 (PKN2, Homo sapiens, UniProt Q16513); cell-free assay, competition with immobilised ligand — remaining binding: 100%.
For Serine/threonine-protein kinase 38-like (STK38L, Homo sapiens, UniProt Q9Y2H1); cell-free assay, competition with immobilised ligand: remaining binding read 100%.
The remaining binding was 100% (Homeodomain-interacting protein kinase 3 (HIPK3, Homo sapiens, UniProt Q9H422); cell-free assay, competition with immobilised ligand).
It gave 100% for remaining binding (Tyrosine-protein kinase Fer (FER, Homo sapiens, UniProt P16591); cell-free assay, competition with immobilised ligand).
It gave 98% for remaining binding (Dual specificity mitogen-activated protein kinase kinase 6 (MAP2K6, Homo sapiens, UniProt P52564); cell-free assay, competition with immobilised ligand).
The remaining binding was 100% (Mast/stem cell growth factor receptor Kit (KIT, Homo sapiens, UniProt P10721, D816H); cell-free assay, competition with immobilised ligand).
For Aurora kinase B (AURKB, Homo sapiens, UniProt Q96GD4); cell-free assay, competition with immobilised ligand: remaining binding read 100%.
For Serine/threonine-protein kinase DCLK2 (DCLK2, Homo sapiens, UniProt Q8N568); cell-free assay, competition with immobilised ligand: remaining binding read 100%.
Serine/threonine-protein kinase SIK1 (SIK1, Homo sapiens, UniProt P57059); binder, KINOMEscan competition binding; reference: DMSO — remaining binding: 100%.
For Serine/threonine-protein kinase Nek6 (NEK6, Homo sapiens, UniProt Q9HC98); cell-free assay, competition with immobilised ligand: remaining binding read 100%.
For Serine/threonine-protein kinase ICK (CILK1, Homo sapiens, UniProt Q9UPZ9); cell-free assay, competition with immobilised ligand: remaining binding read 100%.
For cAMP-dependent protein kinase catalytic subunit PRKX (PRKX, Homo sapiens, UniProt P51817); cell-free assay, competition with immobilised ligand: remaining binding read 100%.

Sample 5 — method: PRP chromatography estimate; medium: 1,9-decadiene/PBS; pH: 7.4
`CCC[C@H]1NC(=O)CSC[C@@H](C(=O)OCC)N(C)C(=O)[C@H](CC(C)C)NC(=O)[C@@H](C)N(C)C(=O)[C@H](CC(C)C)NC(=O)[C@H](C)N(C)C(=O)[C@@H](C)N(C)C(=O)[C@@H](CC(C)C)NC(=O)CN(C)C1=O` has a logD of -0.615.
The logD of `CC(C)C[C@@H]1NC(=O)[C@H](CC(C)C)NC(=O)[C@@H](CC(C)C)NC(=O)[C@H](C(C)C)NC(=O)[C@@H](Cc2cscn2)NC(=O)[C@H](C)NC(=O)[C@H](CCC(=O)N2CCCC2)NC1=O` is reported as -1.93.
For `CCC[C@@H]1NC(=O)CSC[C@@H](C(=O)OCC)N(C)C(=O)[C@H](CC(C)C)NC(=O)[C@H](C)N(C)C(=O)[C@H](CC(C)C)NC(=O)[C@H](C)N(C)C(=O)[C@H]2CCCN2C(=O)[C@@H](CC(C)C)NC(=O)CN(C)C1=O`, the logD was 0.253.

A few entries again (sample 4):
For Aurora kinase B (AURKB, Homo sapiens, UniProt Q96GD4); cell-free assay, competition with immobilised ligand: remaining binding read 100%.
Ephrin type-A receptor 1 (EPHA1, Homo sapiens, UniProt P21709); cell-free assay, competition with immobilised ligand — remaining binding: 100%.
